Assay results collected from several papers.
A part holds a random share of what one study measured. Substitutions count along the parent as printed.

Study 1
Target: RNA binding protein fox-1 homolog 2, RRM domain, GST-SBP tag (RBFOX2, Homo sapiens, UniProt O43251-10, residues 100-194)
Technique: RNA Bind-n-Seq
Form: RNA
Sample: in vitro
Tested at: 365 nM
Setting: natural RNA segment, single round, ends assumed
Reference: no-protein control
Direction: higher = stronger binding
Residues (chain): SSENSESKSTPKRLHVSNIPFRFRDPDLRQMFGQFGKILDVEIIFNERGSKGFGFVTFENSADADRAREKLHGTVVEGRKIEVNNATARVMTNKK
`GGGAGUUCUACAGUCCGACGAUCUCUCAGCUUUGAGACCUGGGCUCUUUGGAGCACAGAGAACUUUGAUUUUUAAGCUUCUACAGAUAUGGUCCUAGAGACUGGGGUCCUCAGACACUCCCGCUGUAUGUGGUUGGAAUUCUCGGGUGCCAA`: “RBNS enrichment (R)” 0.851.
`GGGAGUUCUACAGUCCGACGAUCCUAAGAAUGAAAACAGGUCAUAUGUAAUAUUUUGUUUGUAAGUAUCCUUUGUAUCAUAGCAAAGGAAAUGUUUAAAAGAUCAACUGUAAUAAAAGUAAUUUUAGUACACAUGGAAUUCUCGGGUGCCAA` — result for “RBNS enrichment (R)”: 0.431.
`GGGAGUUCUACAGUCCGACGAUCGGCUCUCAACUCAACUCCCUUUUUUAUUUAGUUCUAUUUGGAGGAGUUAUGUAUUUUUUACAUUAGUGCCAAGUAUAUAGAAGGAUGACAGCAAAAACAGUGCCUCUUUGUGGAAUUCUCGGGUGCCAA` — result for “RBNS enrichment (R)”: 0.87.
`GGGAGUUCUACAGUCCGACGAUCUGUGAUUUACUGUUAGAUUGCCAAUAUAAGUAAAUAUAGACAUAAUCUAUAUAUAGUGUUUCACAAAGCUUAGAUCUUUAACCUUGCAGCUGCCCCACAGUGCUUGACCUUGGAAUUCUCGGGUGCCAA`: “RBNS enrichment (R)” 0.337.
Under “RBNS enrichment (R)”, `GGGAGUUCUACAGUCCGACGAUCUUUCCUCCACUGUACAAUGUCACAGACUAUCUCUAUCAUCAUUGCUUUGUGGCUGUUUCUGUUUUUUACUGUAUGUAACUGGUAGCUGAUUGUACUAGGAUUAAAAACAAUGGAAUUCUCGGGUGCCAA` is recorded as 0.765.
For `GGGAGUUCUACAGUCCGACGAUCCGGAUUUCUGAGUUUGAGGCCAGCCUGGUCUACAGAGUGAGUUCGAGGACAACCAGGGCUACACAGAGAAACCCUGUCUCGAAAACCAAAAACAAAAAAAAAGAACUCCAUGGAAUUCUCGGGUGCCAA`, “RBNS enrichment (R)” read 0.55.
For `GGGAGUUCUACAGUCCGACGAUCGCAUUAUAUAUACCUAUCACUGAUUUAAUGUUCCAAUGUAGAUAGACACUAUUAAAUAAGCAGUAAUUCCUUGAAAGGAGUACCUGUACCAAGUCCUAGGAAAUAAUGCUUGGAAUUCUCGGGUGCCAA`, “RBNS enrichment (R)” read 0.391.
`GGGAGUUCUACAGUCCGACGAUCGGUGGAGUCUUAGGAAGACCCAGGAGUGACUGAGCAGGACAGUAAAGGGAUUCUCCUCAGAACCCAUUGAGUCCUCCACCCCACAGUUGUGCUUGGAAGCCUGUUGACUGUGGAAUUCUCGGGUGCCAA`: “RBNS enrichment (R)” 1.02.
`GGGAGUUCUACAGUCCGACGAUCUGUGCCCAGCUGUCACUCACUCAGCAGCUUCCUUGCAGCAGAGCAGGGCUGAGGGGAAGGGGCUAUGAAUGUUUGUAUACAUGUUCACAGGGCACGGAAAAUCUUAUGCUUGGAAUUCUCGGGUGCCAA` — result for “RBNS enrichment (R)”: 0.571.
`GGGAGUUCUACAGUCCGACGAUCUAAUGUCUGUGGAAAAAAACUAAACAAGUCUCUGUCUCAGUUAAGAGAAAUCUAUUGGUCUGAAGGUUUCUGAACCUCUUUCUGGUUCUCAGCAGAAGUAACUGAAGUAGUGGAAUUCUCGGGUGCCAA`: “RBNS enrichment (R)” 0.449.
`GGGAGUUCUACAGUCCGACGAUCGCCUCUCUGGAAUCUCCAUCCCAACCAUUUCCUGUUCUUGGGAAGGUCCUACGGGCUUCAGAAUCUUAAGACCACACCUUGACUCACCUCUAACCCACGCCGGGAUAUCCUGGAAUUCUCGGGUGCCAA`: “RBNS enrichment (R)” 0.372.
For `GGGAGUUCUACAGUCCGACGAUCAGGGGUGGGGUGAACCCUUCUGUGGUCUGUACCCCUGGUCUAGUGGGAGGAAUCCCUGAAGACCUGCAUCCCCUAAGUGAGGACCCUACAGGGUACCUUGUGCUCUGCCCUGGAAUUCUCGGGUGCCAA`, “RBNS enrichment (R)” read 0.892.

Study 2
Target: CCND2, cyclin fold, Cln2 fusion (human)
Technique: yeast growth competition, sequencing
Sample: yeast
Setting: strong parent motif
Reference: not given
Direction: higher = stronger binding
Starting sequence: INSM1 docking peptide (human); PKAIRKLHFEDEV; partner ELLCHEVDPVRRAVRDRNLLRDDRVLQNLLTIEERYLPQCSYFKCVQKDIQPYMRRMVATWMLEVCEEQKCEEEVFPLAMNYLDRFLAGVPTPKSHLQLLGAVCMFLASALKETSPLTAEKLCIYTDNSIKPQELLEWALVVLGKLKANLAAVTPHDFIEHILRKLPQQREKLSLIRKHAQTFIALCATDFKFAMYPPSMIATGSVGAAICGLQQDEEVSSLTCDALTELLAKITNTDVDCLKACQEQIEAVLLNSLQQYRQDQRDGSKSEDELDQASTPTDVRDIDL
`PFAIRKLHFEDEV [K2F]` — result for “normalised enrichment score”: 1.14.
`PKAIRKLHFSDEV [E10S]` — result for “normalised enrichment score”: 1.79.
Under “normalised enrichment score”, `PKAKRKLHFEDEV [I4K]` is recorded as 1.35.
`PKAIRKLEFEDEV [H8E]` — result for “normalised enrichment score”: 2.36.
Under “normalised enrichment score”, `PKAIKKLHFEDEV [R5K]` is recorded as 0.863.
For `PKAIRKLHFEFEV [D11F]`, “normalised enrichment score” read 1.84.
Under “normalised enrichment score”, `PKAIYKLHFEDEV [R5Y]` is recorded as 1.18.
`PKFIRKLHFEDEV [A3F]` — result for “normalised enrichment score”: -0.0882.
Under “normalised enrichment score”, `PKAIRKLNFEDEV [H8N]` is recorded as 3.55.
`PKAIRKLHHEDEV [F9H]`: “normalised enrichment score” 0.257.
For `PKAIRKLHFEDDV [E12D]`, “normalised enrichment score” read 2.43.
For `PKAIRKLHAEDEV [F9A]`, “normalised enrichment score” read -0.192.
For `PKADRKLHFEDEV [I4D]`, “normalised enrichment score” read -0.011.
`PKAIRKLHLEDEV [F9L]` — result for “normalised enrichment score”: 0.481.
For `PSAIRKLHFEDEV [K2S]`, “normalised enrichment score” read 3.15.
`PKAIRKLHDEDEV [F9D]`: “normalised enrichment score” -0.442.
For `PKAIRKLGFEDEV [H8G]`, “normalised enrichment score” read 1.04.
`PKAIRMLHFEDEV [K6M]`: “normalised enrichment score” 1.4.

Study 3
Target: ABI1, truncated, D143A, DHFR fusion (Arabidopsis thaliana)
Technique: DHFR PCA, deep sequencing
Sample: yeast
Setting: methotrexate growth selection, single substitutions
Together with: (+)-ABA 0.032 µM
Reference: wild-type fitted maximum
Direction: higher = stronger binding
Starting sequence: PYL1, truncated, DHFR fusion (Arabidopsis thaliana); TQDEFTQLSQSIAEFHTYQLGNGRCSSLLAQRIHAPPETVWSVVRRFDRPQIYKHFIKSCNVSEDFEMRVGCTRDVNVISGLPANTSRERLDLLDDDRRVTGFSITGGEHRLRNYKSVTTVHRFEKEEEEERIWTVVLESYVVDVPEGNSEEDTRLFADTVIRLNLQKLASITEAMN; partner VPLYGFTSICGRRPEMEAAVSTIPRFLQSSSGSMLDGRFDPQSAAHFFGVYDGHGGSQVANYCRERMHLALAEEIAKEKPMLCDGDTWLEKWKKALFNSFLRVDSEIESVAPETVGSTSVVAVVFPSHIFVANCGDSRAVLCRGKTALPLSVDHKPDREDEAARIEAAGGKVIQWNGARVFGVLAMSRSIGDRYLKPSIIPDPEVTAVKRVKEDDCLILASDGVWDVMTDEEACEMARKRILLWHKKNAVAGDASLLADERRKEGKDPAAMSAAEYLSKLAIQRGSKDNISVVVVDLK
`S87R`: “relative binding score” 60.1%.
`V70Q`: “relative binding score” 2.54%.
`M176I` — result for “relative binding score”: 7.72%.
`E131G`: “relative binding score” 52.6%.
For `V118K`, “relative binding score” read -1.4%.
`S42H` — result for “relative binding score”: 0.717%.
`Q31H`: “relative binding score” 9.65%.
`R132L`: “relative binding score” 22%.
Under “relative binding score”, `T6K` is recorded as 42%.
Under “relative binding score”, `E129N` is recorded as 30%.
`K54V` — result for “relative binding score”: -2.11%.
`V70L` — result for “relative binding score”: 2.69%.
`V137A`: “relative binding score” 1.03%.
For `K126D`, “relative binding score” read 52.8%.
`A158W` — result for “relative binding score”: 2.99%.
Under “relative binding score”, `F157E` is recorded as 4.25%.
`I52W` — result for “relative binding score”: 11.6%.
Under “relative binding score”, `P83E` is recorded as 12.5%.
For `F5C`, “relative binding score” read 11.5%.
For `P83T`, “relative binding score” read 18.4%.
`E174F`: “relative binding score” -9.18%.
For `A158N`, “relative binding score” read 15.6%.

Study 4
Target: Ras GTPase-activating protein-binding protein 1, RRM domain (G3BP1, Homo sapiens, UniProt Q13283)
Sequence of UniProt Q13283 (whole entry, looked up): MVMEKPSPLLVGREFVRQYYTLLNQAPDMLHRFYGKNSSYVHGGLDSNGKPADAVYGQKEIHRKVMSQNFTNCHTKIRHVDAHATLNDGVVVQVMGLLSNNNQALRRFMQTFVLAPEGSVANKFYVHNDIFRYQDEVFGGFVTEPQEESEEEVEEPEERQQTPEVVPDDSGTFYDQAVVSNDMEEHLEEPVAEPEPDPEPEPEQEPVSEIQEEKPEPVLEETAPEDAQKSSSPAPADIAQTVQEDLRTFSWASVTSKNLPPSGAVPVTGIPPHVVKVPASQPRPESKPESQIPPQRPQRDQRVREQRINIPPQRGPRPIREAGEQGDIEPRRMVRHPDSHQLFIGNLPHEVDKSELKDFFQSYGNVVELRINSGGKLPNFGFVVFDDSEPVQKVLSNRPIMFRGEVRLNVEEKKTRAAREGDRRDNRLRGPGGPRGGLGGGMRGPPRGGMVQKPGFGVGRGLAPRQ
Technique: RNA Bind-n-Seq
Form: RNA
Sample: in vitro
Tested at: 1 µM
Setting: whole 134-nt RNA, ends assumed
Together with: 150 mM KCl
Reference: input library
Direction: higher = stronger binding
`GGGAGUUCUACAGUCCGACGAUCGCAGGAAGUAAAAACAAAUGGAAAUGCUUCGGAUAGUGAAAGGGGUGGGGGUUGCUAAGGAAAGGGUGGGAUGGGAGUGGGUAAAGAGUUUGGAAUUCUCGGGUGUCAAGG` has a log2 enrichment of 1.43.
`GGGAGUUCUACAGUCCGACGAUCAGUCCUGUGCUACACAUCGUAUGUACCGAAUCGGGCCCCGGGGCCCCGGGCCCCGGGGAAAGUAUUAUGUUACGCCGUUCGGAUCUGCACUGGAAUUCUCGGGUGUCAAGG` has a log2 enrichment of -1.3.
`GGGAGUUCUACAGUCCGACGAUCACCAUGCAGGUGGGCAUCUUUGGGCAGUGGGGCAAGGGGGGGAUAGGGAGGGGGGUAACACUUUGGGAACAGGUGGUCCCAGGUCGUUUCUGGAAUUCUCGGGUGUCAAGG` has a log2 enrichment of -0.447.
For `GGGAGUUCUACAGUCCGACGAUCCUGUGCUACACAUCGUAUGUACCGAAUCGGGUUUUUUUGGGUUUUUUUGGGGUUUUUUUGGAAAGUAUUAUGUUACGCCGUUCGGAUCUGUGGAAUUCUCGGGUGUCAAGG`, the log2 enrichment was -0.174.
`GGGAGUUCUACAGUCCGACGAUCUGGGAGGUGGAUUUUGUUUAUUUUUUUAGCUCAUUUCCAGGGGUGGGAAUUUUUUUUUAAUAUGUGUCAUAAAUAAAGUUGUUUUUGAAAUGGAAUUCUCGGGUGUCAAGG` has a log2 enrichment of 1.78.
For `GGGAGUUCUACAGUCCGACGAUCAAGUCCUGUGCUACACAUCGUAUGUACCGAAUCGGUUUUUUUGGAGGUUUUUUUGGAAAGUAUUAUGUUACGCCGUUCGGAUCUGCACUUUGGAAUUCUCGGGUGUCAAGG`, the log2 enrichment was -0.403.
With `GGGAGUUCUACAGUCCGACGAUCUGUGCUACACAUCGUAUGUACCGAAUCGGGGCCCCCCCGGGGCCCCCCCGGGCCCCCCCGGGAAAGUAUUAUGUUACGCCGUUCGGAUCUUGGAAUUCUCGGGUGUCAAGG` the log2 enrichment was -0.523.
`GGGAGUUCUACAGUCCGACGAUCCCUGUGCUACACAUCGUAUGUACCGAAUCGGGCCCCCCCGGGCCCCCCCGGGCCCCCCCGGAAAGUAUUAUGUUACGCCGUUCGGAUCUGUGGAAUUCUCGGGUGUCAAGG` gave a log2 enrichment of -0.687.
The log2 enrichment of `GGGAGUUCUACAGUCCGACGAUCUCCUGUGCUACACAUCGUAUGUACCGAAUCGGAAAAAAAGGGAAAAAAAGGAAAAAAAGGAAAGUAUUAUGUUACGCCGUUCGGAUCUGCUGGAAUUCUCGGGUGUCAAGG` is reported as 0.115.
`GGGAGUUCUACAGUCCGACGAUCCCUGUGCUACACAUCGUAUGUACCGAAUCGGCCCCCCCGGGCCCCCCCGGGGCCCCCCCGGAAAGUAUUAUGUUACGCCGUUCGGAUCUGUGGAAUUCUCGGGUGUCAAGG` gave a log2 enrichment of -0.585.

Excerpt of the above (study 2):
`PKAIRKLEFEDEV [H8E]` — result for “normalised enrichment score”: 2.36.
For `PKAIRKLHFEFEV [D11F]`, “normalised enrichment score” read 1.84.
For `PSAIRKLHFEDEV [K2S]`, “normalised enrichment score” read 3.15.
`PKAIRKLHDEDEV [F9D]`: “normalised enrichment score” -0.442.
`PKFIRKLHFEDEV [A3F]` — result for “normalised enrichment score”: -0.0882.
